Measured values of several laboratories.
Protocols differ between the studies behind these lines. ± gives the spread as reported.

SMILES | cell line | assay | conditions | how to read | measurement | result
COc1cc(CNC(=O)C[C@H](C)CCC=C(C)C)ccc1OCc1cn(-c2cccc(C(F)(F)F)c2)nn1 | NCI-H322M | SRB | 10 µM, 48 h |  | growth percent | 90.1%
CC1=CC(C)(C)N=C(Nc2nc(C)c3cc(C)cc(C)c3n2)N1 | activated PBMC |  | 1 µM, 0.5 h |  | NADH level increase | 40.1%
N=C(N/N=C/c1ccc(Cl)cc1)N/N=C/c1ccc(Cl)cc1 | PANC-1 | crystal violet | 72 h | baseline: IC50 IMR-90 over IC50 PANC-1 | selectivity ratio | 0.7
Cc1nnc(-c2ccc(CNC(=O)CCCCCOc3cccc4c3C(=O)N(C3CCC(=O)NC3=O)C4=O)cc2)nn1 (stereo not shown) | A-375 | degrader, immunoblot | concentration not given |  | ERK1/2 protein level | no effect
COc1ccc(-c2nc3ccc(C4=NNC(=O)CC4C)cc3[nH]2)cc1 (stereo not shown) | hiPSC cardiac tissues 3D | active force | 15 min per concentration, paced at 1 Hz serum-free |  | minimum effective concentration | 3 µM
COc1cc(CNC(=O)C[C@H](C)CCC=C(C)C)ccc1OCc1cn(-c2ccc([N+](=O)[O-])cc2)nn1 | SN12C | SRB | 10 µM, 48 h |  | growth percent | 70.7%
CC(C)c1cccc(C(C)C)c1N1CCN(c2c(C(C)C)cccc2C(C)C)C1=[Se].[Cl][Ag] | A2780 ADR | MTT |  | baseline: A2780 ADR over A2780 | resistance factor | 0.5
COc1cc(CNC(=O)C[C@H](C)CCC=C(C)C)ccc1OCc1cn(-c2ccc(F)cc2)nn1 | SK-OV-3 ovarian cancer cells | SRB | 10 µM, 48 h |  | growth percent | 85%
CC(=O)OC[C@H]1O[C@@H](Sc2sc(C(=O)c3ccc(C)cc3)c(N)c2-c2nc3ccccc3s2)[C@H](OC(C)=O)[C@@H](OC(C)=O)[C@@H]1OC(C)=O | HOP-92 | SRB | 10 µM, 48 h | baseline: untreated | growth | 58.8%
COc1cc(CN2CCN(c3ccc(OC(F)(F)F)cc3)CC2)c2cc3[n+](cc2c1O)CCc1cc2c(cc1-3)OCO2 | Ca-Ski and MDCK | SRB | 48 h | baseline: CC50 MDCK over IC50 Ca-Ski | therapeutic index | 32
CC(CCC(=O)NCc1ccc(C(=O)NO)cc1)C1CCC2C3C(O)CC4CC(O)CCC4(C)C3CCC12C (stereo not shown) | polycystic liver disease cholangiocytes (human) |  | 2 µM |  | increase in primary cilium length | ~40%
CC(C)C[C@H](NC(=O)[C@H](CC(C)C)NC(=O)[C@@H](N)CSSC[C@H](N)C(=O)N[C@@H](CC(C)C)C(=O)N[C@@H](CC(C)C)C(=O)N[C@@H](CCCNC(=N)N)C(=O)N[C@@H](CCCCN)C(=O)N[C@@H](CCCCN)C(=O)N[C@@H](CCCNC(=N)N)C(=O)N[C@@H](CCCNC(=N)N)C(=O)N[C@@H](CCC(N)=O)C(=O)N[C@@H](CCCNC(=N)N)C(=O)N[C@@H](CCCNC(=N)N)C(=O)N[C@@H](CCCNC(=N)N)C(=O)NCC(N)=O)C(=O)N[C@@H](CCCNC(=N)N)C(=O)N[C@@H](CCCCN)C(=O)N[C@@H](CCCCN)C(=O)N[C@@H](CCCNC(=N)N)C(=O)N[C@@H](CCCNC(=N)N)C(=O)N[C@@H](CCC(N)=O)C(=O)N[C@@H](CCCNC(=N)N)C(=O)N[C@@H](CCCNC(=N)N)C(=O)N[C@@H](CCCNC(=N)N)C(=O)NCC(N)=O | sample A primary mouse astrocytes | flow cytometry | 8 µM, 1 h, analysed 24 h after, with: TAT-Cre 2 µM |  | tdTomato-positive cells | ≥ 50%
COc1cc(CNC(=O)C[C@H](C)CCC=C(C)C)ccc1OCc1cn(-c2ccccc2[N+](=O)[O-])nn1 | NCI-H322M | SRB | 10 µM, 48 h |  | growth percent | 94.4%
COc1ccc([C@@H]2CC(=O)c3c(O)cc(O[C@@H]4O[C@H](CO[C@@H]5O[C@@H](C)[C@H](O)[C@@H](O)[C@H]5O)[C@@H](O)[C@H](O)[C@H]4O)cc3O2)cc1O | A549 | trypan blue exclusion | 100 µg/mL, 72 h |  | cell count | 17500 ± 618
CC(=O)OC[C@H]1O[C@@H](Sc2sc(C(=O)c3ccc(Br)cc3)c(N)c2-c2nc3ccccc3s2)[C@H](OC(C)=O)[C@@H](OC(C)=O)[C@@H]1OC(C)=O | TK-10 | SRB | 10 µM, 48 h | baseline: untreated | growth | 147%
COc1cc(CNC(=O)C[C@H](C)CCC=C(C)C)ccc1OCc1cn(-c2ccc(Cl)cc2Cl)nn1 | HOP-92 | SRB | 10 µM, 48 h |  | growth percent | -3.27%
COc1ccc(C2=NN(C3=NC(=O)C(=Cc4ccc(O)cc4)S3)C(c3ccc(F)cc3)C2)cc1 (stereo not shown) | T47D | annexin V-FITC/PI flow cytometry | concentration not given |  | early apoptotic cells | 3.22%
C=C(C)[C@@H]1CC[C@]2(C(=O)OCO/N=[N+](\[O-])N3CCCC3)CC[C@]3(C)[C@H](CC[C@@H]4[C@@]5(C)CC[C@H](OC(C)=O)C(C)(C)[C@@H]5CC[C@]43C)[C@@H]12 | B16-F10 | Annexin V/PI flow cytometry | 0.25 µM, 36 h |  | early apoptotic cells | 3.17%
CCC(=C(c1ccc(Cl)cc1)c1ccc(OCCCN(C)C)cc1)c1ccc(OC)cc1 | HOP-92 | cell growth or viability, SRB |  |  | GI50 | 830 nM

For quick reference, copied from above:
SMILES | cell line | assay | conditions | how to read | measurement | result
CC(=O)OC[C@H]1O[C@@H](Sc2sc(C(=O)c3ccc(C)cc3)c(N)c2-c2nc3ccccc3s2)[C@H](OC(C)=O)[C@@H](OC(C)=O)[C@@H]1OC(C)=O | HOP-92 | SRB | 10 µM, 48 h | baseline: untreated | growth | 58.8%
COc1cc(CN2CCN(c3ccc(OC(F)(F)F)cc3)CC2)c2cc3[n+](cc2c1O)CCc1cc2c(cc1-3)OCO2 | Ca-Ski and MDCK | SRB | 48 h | baseline: CC50 MDCK over IC50 Ca-Ski | therapeutic index | 32
CC(CCC(=O)NCc1ccc(C(=O)NO)cc1)C1CCC2C3C(O)CC4CC(O)CCC4(C)C3CCC12C (stereo not shown) | polycystic liver disease cholangiocytes (human) |  | 2 µM |  | increase in primary cilium length | ~40%
